Measurements of several laboratories.
A part holds a random share of what one study measured.

Set 1
Target: Sigma intracellular receptor 2 (TMEM97, Homo sapiens, UniProt Q5BJF2)
Chain of UniProt Q5BJF2 (whole entry, looked up): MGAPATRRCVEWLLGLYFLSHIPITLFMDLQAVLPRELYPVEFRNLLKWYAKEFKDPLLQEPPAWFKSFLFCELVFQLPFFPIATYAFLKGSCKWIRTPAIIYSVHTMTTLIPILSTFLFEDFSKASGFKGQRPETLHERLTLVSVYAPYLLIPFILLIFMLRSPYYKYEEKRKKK
Effect on: binding
Technique: radioligand binding
Tested at: 10 µM
Endpoint: inhibition
CC(=O)Nc1nc(CN2CCC[C@H](Cc3cc(C)nc(C)c3)C2)cs1: 59.6%
Cc1c(N2CCCC2)nc2ccc(Br)cc2c1C(=O)NC[C@H](CCC(=O)O)c1ccccc1Cl: 8.52%
CC1=C(C#N)C(c2ccc3c(c2)c(NC(=O)c2ccccc2C)nn3C)C(C#N)=C(C)N1: 51.2%
CCOC(=O)c1cc2cc(-c3cc(C(=O)NCc4ccc(C(=O)O)cc4)nn3C)ccc2[nH]1: -10.3%
O=C1CCc2cc(Nc3cc(OC4CCOCC4)c([N+](=O)[O-])cc3Cl)ccc2N1: 27.1%
COCc1nc2cnc3cc(-c4c(C)noc4C)c(OC[C@H]4CCNC4)cc3c2n1[C@H](C)c1ccccc1: 23%
CN([C@@H]1CCc2c(CC(=O)O)c3cc(S(C)(=O)=O)ccc3n2C1)S(=O)(=O)c1ccc(F)cc1: -9.3%

Set 2
Host: human
Matrix: microsomes or S9
Tested at: 2 µM
Time: 0.5 h
Endpoint: remaining compound
Cc1ccc(-c2nc3scc(CCNS(=O)(=O)c4ccc(Br)cc4)n3n2)cc1: 6.18%
CC(C)NC(=O)CN1C(=O)c2ccccc2N2C(=O)c3ccccc3C12 (stereo not drawn): 99.2%
COc1cc(=O)[nH]cc1C(=O)N1CCCC1c1cn(C)nc1C (stereo not drawn): 97.4%
O=c1[nH]c(N2CCN(Cc3ccccc3)CC2)nc(O)c1Cc1ccccc1: 39.1%
COc1ccc(-c2nnc(N(C)C)n2-c2ccc(C)cc2)c(OC)c1: 21.2%

Set 3
Cell line: A-375
Tested at: 100 µM
Time: 36 h
Endpoint: viability
CC(NCCC(c1ccccc1)c1ccccc1)c1ccccc1 (stereo not drawn): -2.47%
Nc1ccc(C(=O)O)c(O)c1: 127%
CCc1oc2ccccc2c1C(=O)c1cc(Br)c(O)c(Br)c1: 30.1%
Cc1cc(-c2ccc(/N=N/c3ccc4c(S(=O)(=O)O)cc(S(=O)(=O)O)c(N)c4c3O)c(C)c2)ccc1/N=N/c1ccc2c(S(=O)(=O)O)cc(S(=O)(=O)O)c(N)c2c1O: 139%
O=c1cc(-c2ccccc2)oc2cc(O)c(O)c(O)c12: 29.4%

Set 4
Target: Rho-associated protein kinase 2 (ROCK2, Homo sapiens, UniProt O75116)
Chain of UniProt O75116 (whole entry, looked up): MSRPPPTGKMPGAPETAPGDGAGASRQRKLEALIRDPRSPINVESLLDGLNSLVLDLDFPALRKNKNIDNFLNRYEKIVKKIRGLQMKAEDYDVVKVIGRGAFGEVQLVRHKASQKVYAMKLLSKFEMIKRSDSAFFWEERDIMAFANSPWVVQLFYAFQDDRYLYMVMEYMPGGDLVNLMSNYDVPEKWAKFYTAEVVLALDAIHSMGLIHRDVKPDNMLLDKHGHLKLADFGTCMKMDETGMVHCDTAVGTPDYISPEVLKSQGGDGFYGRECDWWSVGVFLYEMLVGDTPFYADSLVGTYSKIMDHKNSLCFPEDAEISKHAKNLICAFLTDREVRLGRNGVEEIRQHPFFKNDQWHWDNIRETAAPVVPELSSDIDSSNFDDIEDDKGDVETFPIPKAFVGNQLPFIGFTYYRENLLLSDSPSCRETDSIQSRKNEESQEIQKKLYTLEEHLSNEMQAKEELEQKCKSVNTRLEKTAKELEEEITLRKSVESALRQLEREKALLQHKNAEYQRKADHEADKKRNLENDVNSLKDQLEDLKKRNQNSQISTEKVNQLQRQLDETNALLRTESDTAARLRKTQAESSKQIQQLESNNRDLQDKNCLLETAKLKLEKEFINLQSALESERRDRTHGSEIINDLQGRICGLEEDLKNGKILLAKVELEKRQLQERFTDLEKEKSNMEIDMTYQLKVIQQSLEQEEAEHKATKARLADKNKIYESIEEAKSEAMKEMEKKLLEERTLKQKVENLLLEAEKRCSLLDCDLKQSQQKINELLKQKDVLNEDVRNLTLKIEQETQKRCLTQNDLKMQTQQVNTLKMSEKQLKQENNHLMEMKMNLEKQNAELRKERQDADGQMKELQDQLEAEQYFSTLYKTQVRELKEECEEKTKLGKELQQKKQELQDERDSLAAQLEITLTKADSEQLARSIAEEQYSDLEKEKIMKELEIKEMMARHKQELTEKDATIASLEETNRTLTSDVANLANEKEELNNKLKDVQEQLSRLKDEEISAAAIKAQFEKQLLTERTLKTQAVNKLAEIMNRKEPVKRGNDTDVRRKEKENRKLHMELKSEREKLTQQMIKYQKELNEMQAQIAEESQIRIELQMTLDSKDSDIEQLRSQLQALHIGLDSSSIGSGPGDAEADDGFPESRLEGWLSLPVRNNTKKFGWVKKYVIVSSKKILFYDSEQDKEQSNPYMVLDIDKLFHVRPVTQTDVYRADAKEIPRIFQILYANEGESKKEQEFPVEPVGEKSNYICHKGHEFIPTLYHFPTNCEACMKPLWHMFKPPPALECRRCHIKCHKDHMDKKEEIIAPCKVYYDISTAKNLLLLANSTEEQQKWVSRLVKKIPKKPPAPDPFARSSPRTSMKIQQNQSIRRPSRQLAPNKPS
Effect on: enzyme activity
Mode: inhibitor
Tested at: 0.5 µM
Reference: control
Endpoint: remaining activity
Oc1ccc(-c2nc(-c3ccncc3)c(-c3ccc(F)cc3)[nH]2)cc1: 93.6%
Nc1ncnc2n[nH]c(Nc3ccc(F)cc3)c12: 92.1%
Cc1nc(-c2ccccc2)c(-c2ccncc2)o1: 97.6%
O=C(O)c1ccc2c3c1cccc3c(=O)n1c3ccccc3nc21: 99%
COc1cc2ncnc(Nc3ccc(F)c(Cl)c3)c2cc1OCCCN1CCOCC1: 90.8%
CCOC(=O)c1c(C)[nH]c(/C=C2\C(=O)Nc3ccccc32)c1C: 94.3%
N#CC(C#N)=C(N)/C(C#N)=C/c1ccc(O)cc1: 98.3%
Cn1c2ccccc2c2c3c(c4c5ccccc5n(CCC#N)c4c21)CNC3=O: 48.5%
COc1ccc(OC)c2c(=S)c3ccccc3[nH]c12: 90.4%
COc1cc2nccc(Oc3ccc(NC(=S)NC(=O)c4ccccc4C)cc3)c2cc1OC: 92.5%
COc1cc2ncnc(Nc3ccc(Oc4ccccc4)cc3)c2cc1OC: 99.3%
CNC(=O)c1cc(Oc2ccc(NC(=O)Nc3ccc(Cl)c(C(F)(F)F)c3)cc2)ccn1: 101%
Cn1sc(=O)n(Cc2ccccc2)c1=O: 88.8%
C#Cc1cccc(Nc2ncnc3cc(OCCOC)c(OCCOC)cc23)c1: 91%
Nc1[nH]nc2nc3ccccc3nc12: 93.3%
O=C(CCCc1ccc(-c2ccccc2F)cc1)Nc1ccc(O)cc1: 90.5%

Repeated from above (set 4):
N#CC(C#N)=C(N)/C(C#N)=C/c1ccc(O)cc1: 98.3%
Cn1c2ccccc2c2c3c(c4c5ccccc5n(CCC#N)c4c21)CNC3=O: 48.5%
COc1ccc(OC)c2c(=S)c3ccccc3[nH]c12: 90.4%
